{"sequences": {"note": "Chains of the proteins cited; added tags and fusions are not shown. Residues count along the entry.", "UniProt P22303, whole entry, looked up": "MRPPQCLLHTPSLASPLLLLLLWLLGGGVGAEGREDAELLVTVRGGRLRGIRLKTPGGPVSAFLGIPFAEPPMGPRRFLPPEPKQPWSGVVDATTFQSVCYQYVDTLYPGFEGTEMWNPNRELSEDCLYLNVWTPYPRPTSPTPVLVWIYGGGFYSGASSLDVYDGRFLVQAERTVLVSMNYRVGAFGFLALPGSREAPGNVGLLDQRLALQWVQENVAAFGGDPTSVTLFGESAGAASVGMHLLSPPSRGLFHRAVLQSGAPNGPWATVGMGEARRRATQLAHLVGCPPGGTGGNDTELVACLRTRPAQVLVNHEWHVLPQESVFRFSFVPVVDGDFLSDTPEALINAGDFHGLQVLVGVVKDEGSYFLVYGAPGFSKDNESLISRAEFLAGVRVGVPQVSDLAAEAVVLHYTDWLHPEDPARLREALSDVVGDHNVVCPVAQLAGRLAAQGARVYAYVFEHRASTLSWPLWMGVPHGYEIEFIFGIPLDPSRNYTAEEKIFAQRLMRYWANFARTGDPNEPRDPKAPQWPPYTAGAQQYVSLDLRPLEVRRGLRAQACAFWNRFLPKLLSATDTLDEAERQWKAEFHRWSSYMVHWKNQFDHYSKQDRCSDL", "UniProt P17405, 47-631 limits assumed": "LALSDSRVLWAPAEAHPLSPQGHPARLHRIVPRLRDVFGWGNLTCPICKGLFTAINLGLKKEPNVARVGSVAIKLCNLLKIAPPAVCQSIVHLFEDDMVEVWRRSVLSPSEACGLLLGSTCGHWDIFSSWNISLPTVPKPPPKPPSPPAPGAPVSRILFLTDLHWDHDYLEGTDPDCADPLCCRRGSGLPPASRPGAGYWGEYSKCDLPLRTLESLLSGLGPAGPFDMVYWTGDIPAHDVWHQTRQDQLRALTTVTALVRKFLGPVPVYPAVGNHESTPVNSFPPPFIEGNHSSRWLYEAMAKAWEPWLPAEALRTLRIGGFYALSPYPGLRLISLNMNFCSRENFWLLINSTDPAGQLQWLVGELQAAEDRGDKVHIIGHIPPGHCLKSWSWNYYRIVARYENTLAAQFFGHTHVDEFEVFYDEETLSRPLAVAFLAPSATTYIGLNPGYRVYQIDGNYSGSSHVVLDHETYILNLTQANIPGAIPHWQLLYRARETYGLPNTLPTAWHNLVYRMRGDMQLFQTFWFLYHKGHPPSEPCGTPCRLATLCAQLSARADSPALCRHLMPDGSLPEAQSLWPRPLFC", "UniProt Q01959, whole entry": "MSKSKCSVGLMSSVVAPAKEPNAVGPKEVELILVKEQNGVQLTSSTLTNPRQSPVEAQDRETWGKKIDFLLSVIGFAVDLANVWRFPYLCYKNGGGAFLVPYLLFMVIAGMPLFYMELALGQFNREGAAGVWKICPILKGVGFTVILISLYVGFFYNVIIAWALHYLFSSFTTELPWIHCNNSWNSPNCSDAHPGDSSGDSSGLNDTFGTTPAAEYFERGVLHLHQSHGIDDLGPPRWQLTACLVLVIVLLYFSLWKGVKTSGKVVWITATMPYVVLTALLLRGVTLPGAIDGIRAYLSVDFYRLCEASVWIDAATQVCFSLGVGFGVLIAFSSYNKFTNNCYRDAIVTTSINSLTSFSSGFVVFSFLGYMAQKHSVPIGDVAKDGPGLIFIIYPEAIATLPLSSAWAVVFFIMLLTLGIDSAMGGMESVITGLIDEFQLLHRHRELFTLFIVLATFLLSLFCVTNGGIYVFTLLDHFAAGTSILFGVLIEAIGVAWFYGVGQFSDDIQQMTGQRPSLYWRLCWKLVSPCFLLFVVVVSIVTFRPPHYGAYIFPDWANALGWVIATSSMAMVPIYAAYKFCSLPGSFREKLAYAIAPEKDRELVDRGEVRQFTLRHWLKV", "UniProt P11229, whole entry": "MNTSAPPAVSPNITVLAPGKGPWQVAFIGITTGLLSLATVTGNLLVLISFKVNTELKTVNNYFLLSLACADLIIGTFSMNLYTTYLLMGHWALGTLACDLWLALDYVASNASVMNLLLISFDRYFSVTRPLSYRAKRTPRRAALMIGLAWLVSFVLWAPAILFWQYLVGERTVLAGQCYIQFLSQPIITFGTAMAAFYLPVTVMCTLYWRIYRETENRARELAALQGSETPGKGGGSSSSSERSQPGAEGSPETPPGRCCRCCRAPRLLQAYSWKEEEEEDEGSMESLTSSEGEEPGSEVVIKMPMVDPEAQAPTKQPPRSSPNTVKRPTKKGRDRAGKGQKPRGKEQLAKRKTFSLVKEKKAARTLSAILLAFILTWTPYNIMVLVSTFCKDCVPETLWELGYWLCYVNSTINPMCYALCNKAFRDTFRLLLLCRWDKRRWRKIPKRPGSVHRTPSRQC", "UniProt P54578, whole entry": "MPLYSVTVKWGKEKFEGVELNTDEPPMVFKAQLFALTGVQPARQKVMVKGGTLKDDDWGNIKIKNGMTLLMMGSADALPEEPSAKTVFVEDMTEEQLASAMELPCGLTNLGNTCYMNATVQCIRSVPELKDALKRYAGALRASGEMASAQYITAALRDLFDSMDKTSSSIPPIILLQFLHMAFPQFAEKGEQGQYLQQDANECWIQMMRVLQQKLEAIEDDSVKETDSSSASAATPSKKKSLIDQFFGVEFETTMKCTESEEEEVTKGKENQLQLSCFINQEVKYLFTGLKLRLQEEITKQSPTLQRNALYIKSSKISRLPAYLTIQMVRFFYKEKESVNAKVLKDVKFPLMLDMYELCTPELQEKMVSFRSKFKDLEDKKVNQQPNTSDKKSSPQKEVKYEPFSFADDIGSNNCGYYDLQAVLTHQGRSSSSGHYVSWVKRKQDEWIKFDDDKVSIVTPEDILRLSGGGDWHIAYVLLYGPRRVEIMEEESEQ", "UniProt Q99720, whole entry": "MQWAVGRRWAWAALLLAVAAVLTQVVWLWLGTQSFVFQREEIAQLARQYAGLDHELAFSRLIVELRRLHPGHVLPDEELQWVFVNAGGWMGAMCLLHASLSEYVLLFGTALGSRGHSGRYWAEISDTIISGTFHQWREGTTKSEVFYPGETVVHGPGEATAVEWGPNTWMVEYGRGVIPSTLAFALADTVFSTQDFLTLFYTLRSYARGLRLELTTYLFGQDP", "UniProt Q05941, 23-502 limits assumed": "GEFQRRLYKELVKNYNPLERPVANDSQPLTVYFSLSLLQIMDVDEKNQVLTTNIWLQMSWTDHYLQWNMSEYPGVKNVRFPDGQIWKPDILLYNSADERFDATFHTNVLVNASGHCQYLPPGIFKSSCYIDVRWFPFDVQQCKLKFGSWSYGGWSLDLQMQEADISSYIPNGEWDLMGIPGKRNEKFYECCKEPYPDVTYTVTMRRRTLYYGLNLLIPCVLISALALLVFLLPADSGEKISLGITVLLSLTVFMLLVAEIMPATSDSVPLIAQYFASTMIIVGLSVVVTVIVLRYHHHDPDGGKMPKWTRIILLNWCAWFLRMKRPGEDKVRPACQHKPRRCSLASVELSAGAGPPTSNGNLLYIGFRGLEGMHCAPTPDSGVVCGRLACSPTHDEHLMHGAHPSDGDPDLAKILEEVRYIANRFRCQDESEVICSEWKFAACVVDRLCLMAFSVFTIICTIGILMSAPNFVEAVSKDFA"}, "data": "Published values pooled from the literature", "ACHE": "Acetylcholinesterase (ACHE, Homo sapiens, UniProt P22303)", "note": "Protocols differ between the studies behind these lines. ± marks the error that the study gave."}
{"Compound": "O=C(O)c1ccccc1[As](=O)(O)O", "target": "SMPD1 (Homo sapiens, UniProt P17405)", "assay": "enzyme activity", "setting": "concentration not given, pH 6.5, added: sphingomyelin substrate", "inhibition": "inhibited"}
{"Compound": "CCN(CC)Cc1cc(NC(C)=O)ccc1O", "target": "ACHE", "assay": "enzyme activity, inhibitor", "setting": "1000 µM", "inhibition": "0%"}
{"Compound": "CC(Cc1ccccc1)NCCn1cnc2c1c(=O)n(C)c(=O)n2C (stereo not shown)", "target": "SLC6A3 (Homo sapiens, UniProt Q01959)", "assay": "radioligand binding", "setting": "10 µM", "inhibition": "9%"}
{"Compound": "CC(C)[C@H]1CC[C@@H](N2CCC(n3c(CO)cc4ccccc43)CC2)CC1", "target": "CHRM1 (Homo sapiens, UniProt P11229)", "assay": "radioligand binding", "setting": "10 µM", "inhibition": "85%"}
{"Compound": "CCOc1ccc(N)cc1CN(CC)CC", "target": "ACHE", "assay": "enzyme activity, inhibitor", "setting": "1000 µM", "inhibition": "5%"}
{"Compound": "CCn1ccc(-c2cc(-c3cnn(C)c3)cc([C@@H](C)NC(=O)c3cc(OCCN(C)C)ccc3C)c2)n1", "target": "USP14 (Homo sapiens, UniProt P54578)", "assay": "enzyme activity", "setting": "up to 40 µM, added: Ub-AMC substrate", "inhibition": "no inhibition"}
{"Compound": "CN(C)Cc1cc(O)ccc1N", "target": "ACHE", "assay": "enzyme activity, inhibitor", "setting": "1000 µM", "inhibition": "18%"}
{"Compound": "Cc1ncc(-c2cc(Cl)ccc2F)cc1-n1c(=O)n(CC(N)=O)c2ccccc21", "target": "SIGMAR1 (Homo sapiens, UniProt Q99720)", "assay": "binding, radioligand binding", "setting": "10 µM", "inhibition": "13.2%"}
{"Compound": "O=C(NCC1CCN(Cc2ccccc2)CC1)c1cn(Cc2cccc(Cl)c2)nn1", "target": "Chrna7 (Rattus norvegicus, UniProt Q05941)", "assay": "binding", "test system": "rat brain membranes", "setting": "10 µM, added: radiolabelled α-bungarotoxin", "inhibition": "83 ± 1.7%"}
{"Compound": "CSCC[C@@H]1NC(=O)[C@H](CC(C)C)NC(=O)[C@H](CCCNC(=N)N)NC(=O)[C@H](CO)NC(=O)[C@@H]2CSSC[C@@H]3NC(=O)[C@H](CO)NC(=O)CNC(=O)[C@H]([C@@H](C)O)NC(=O)[C@H](CSSC[C@H](N)C(=O)N[C@@H](CCCCN)C(=O)NCC(=O)N[C@@H](CCCCN)C(=O)NCC(=O)N[C@@H](C)C(=O)N[C@@H](CCCCN)C(=O)N2)NC(=O)[C@H](CSSC[C@@H](C(N)=O)NC(=O)[C@H](CCCCN)NC(=O)CNC(=O)[C@H](CO)NC(=O)[C@H](CCCNC(=N)N)NC3=O)NC(=O)[C@H](CC(=O)O)NC(=O)[C@H](Cc2ccc(O)cc2)NC1=O", "target": "Voltage-dependent P/Q-type calcium channel subunit alpha-1A (Homo sapiens, UniProt O00555)", "assay": "antagonist", "test system": "HEK293", "setting": "3 µM", "inhibition": "12%"}
{"note": "Excerpt of the above:"}
{"Compound": "CCN(CC)Cc1cc(NC(C)=O)ccc1O", "target": "ACHE", "assay": "enzyme activity, inhibitor", "setting": "1000 µM", "inhibition": "0%"}
